Published values pooled from the literature.
Protocols differ between the studies behind these lines. “And” joins repeats or separate records; there may be more than shown. ± marks the error that the study gave.
uncharacterized protein: uncharacterized protein (Anopheles coluzzii, UniProt A0A6E8VQK1)
Sequence of UniProt O15427 (whole entry, looked up): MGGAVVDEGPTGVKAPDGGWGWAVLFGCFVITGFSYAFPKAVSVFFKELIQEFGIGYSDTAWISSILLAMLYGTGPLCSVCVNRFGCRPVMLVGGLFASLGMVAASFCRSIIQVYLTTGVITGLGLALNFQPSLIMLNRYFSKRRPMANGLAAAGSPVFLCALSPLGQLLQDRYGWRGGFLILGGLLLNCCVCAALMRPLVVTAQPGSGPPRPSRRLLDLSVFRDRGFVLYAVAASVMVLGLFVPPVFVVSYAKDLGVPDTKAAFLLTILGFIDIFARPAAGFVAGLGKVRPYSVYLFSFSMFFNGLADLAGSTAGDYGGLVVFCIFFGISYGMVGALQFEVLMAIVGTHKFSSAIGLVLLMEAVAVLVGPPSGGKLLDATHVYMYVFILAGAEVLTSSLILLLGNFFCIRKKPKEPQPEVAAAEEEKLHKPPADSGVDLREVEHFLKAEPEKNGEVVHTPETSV
Sequence of UniProt Q62351 (whole entry, looked up): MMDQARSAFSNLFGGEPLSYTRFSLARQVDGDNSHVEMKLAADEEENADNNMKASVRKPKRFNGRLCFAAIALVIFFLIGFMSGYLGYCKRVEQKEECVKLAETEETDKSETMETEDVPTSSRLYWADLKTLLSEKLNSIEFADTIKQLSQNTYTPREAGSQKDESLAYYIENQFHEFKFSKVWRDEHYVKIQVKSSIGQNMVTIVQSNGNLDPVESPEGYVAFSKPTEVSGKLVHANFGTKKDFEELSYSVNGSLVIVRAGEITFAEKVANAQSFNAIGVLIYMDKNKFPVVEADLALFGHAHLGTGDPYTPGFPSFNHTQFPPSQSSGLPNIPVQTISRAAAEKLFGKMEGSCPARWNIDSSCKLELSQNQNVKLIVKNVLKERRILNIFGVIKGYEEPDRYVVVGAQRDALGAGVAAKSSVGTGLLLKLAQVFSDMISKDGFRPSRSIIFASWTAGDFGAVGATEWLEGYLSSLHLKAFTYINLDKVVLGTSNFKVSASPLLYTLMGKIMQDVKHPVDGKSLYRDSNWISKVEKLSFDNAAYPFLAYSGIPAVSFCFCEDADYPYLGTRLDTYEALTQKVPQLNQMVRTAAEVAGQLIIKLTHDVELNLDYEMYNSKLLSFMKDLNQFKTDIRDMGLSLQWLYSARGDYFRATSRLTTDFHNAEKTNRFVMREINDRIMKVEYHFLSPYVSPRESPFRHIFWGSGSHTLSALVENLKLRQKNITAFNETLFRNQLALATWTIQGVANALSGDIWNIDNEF
Sequence of UniProt Q6PJP8 (whole entry, looked up): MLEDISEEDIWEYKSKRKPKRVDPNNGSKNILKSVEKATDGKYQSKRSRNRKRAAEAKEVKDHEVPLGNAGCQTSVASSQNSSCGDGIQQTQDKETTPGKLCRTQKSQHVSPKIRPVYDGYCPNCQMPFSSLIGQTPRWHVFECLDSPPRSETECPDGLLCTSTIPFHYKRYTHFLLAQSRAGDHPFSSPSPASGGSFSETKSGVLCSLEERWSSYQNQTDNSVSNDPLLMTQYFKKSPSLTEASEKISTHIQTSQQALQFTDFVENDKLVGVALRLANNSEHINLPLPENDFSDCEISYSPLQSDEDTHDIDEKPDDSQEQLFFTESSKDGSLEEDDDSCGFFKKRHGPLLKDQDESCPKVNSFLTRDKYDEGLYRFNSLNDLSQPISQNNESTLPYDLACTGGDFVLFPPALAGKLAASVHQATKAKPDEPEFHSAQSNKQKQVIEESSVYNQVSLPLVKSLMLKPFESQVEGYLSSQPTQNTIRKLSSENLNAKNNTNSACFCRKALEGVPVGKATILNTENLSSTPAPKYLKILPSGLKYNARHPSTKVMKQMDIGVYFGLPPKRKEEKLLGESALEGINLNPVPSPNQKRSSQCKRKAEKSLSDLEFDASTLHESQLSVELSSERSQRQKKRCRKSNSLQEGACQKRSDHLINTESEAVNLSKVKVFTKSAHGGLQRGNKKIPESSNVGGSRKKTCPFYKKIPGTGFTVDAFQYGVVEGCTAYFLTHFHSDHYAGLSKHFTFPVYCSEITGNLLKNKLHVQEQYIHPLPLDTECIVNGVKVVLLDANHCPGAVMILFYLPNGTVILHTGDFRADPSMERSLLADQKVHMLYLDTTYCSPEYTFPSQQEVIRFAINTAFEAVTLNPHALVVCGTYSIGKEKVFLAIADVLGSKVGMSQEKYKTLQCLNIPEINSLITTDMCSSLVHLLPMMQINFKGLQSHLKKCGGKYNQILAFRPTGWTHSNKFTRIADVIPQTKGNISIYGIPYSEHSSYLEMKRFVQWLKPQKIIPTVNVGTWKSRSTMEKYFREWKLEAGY
Sequence of UniProt Q96E52 (whole entry, looked up): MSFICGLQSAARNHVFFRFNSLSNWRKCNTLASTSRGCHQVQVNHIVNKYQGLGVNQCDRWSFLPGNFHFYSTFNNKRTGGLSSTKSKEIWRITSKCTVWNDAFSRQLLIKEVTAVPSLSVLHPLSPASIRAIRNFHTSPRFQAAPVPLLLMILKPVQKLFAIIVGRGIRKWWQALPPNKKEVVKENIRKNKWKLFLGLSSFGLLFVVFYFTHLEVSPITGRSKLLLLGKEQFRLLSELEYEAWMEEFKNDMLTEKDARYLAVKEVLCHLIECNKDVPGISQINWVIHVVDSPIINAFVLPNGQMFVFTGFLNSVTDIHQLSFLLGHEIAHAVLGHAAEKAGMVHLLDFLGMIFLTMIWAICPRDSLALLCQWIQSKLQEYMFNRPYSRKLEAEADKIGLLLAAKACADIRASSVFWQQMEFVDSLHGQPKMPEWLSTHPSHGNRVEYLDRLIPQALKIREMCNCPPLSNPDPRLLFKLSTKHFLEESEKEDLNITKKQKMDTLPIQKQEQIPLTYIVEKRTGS
Sequence of UniProt Q9BZJ6 (whole entry, looked up): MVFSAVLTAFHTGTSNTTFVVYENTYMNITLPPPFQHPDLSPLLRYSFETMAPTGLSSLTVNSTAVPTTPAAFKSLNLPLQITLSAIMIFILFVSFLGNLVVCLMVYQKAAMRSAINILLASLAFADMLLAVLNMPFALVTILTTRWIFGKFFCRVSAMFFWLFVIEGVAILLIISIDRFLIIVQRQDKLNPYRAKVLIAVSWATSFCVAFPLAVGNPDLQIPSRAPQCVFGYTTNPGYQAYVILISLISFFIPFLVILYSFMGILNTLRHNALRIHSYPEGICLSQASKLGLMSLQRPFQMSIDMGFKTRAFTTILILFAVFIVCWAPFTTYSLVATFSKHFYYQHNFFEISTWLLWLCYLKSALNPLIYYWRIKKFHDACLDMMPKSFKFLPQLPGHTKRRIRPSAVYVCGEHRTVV
Sequence of UniProt Q15722 (whole entry, looked up): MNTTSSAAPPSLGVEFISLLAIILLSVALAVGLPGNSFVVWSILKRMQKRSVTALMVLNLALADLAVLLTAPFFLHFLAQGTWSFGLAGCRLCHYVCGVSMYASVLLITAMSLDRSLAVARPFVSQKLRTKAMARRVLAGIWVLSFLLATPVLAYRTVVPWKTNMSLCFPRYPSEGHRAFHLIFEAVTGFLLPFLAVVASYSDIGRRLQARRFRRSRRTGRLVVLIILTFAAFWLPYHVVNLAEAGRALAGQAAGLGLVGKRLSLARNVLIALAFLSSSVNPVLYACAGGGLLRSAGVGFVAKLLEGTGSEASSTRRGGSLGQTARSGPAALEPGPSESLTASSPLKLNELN
Sequence of UniProt O95977 (whole entry, looked up): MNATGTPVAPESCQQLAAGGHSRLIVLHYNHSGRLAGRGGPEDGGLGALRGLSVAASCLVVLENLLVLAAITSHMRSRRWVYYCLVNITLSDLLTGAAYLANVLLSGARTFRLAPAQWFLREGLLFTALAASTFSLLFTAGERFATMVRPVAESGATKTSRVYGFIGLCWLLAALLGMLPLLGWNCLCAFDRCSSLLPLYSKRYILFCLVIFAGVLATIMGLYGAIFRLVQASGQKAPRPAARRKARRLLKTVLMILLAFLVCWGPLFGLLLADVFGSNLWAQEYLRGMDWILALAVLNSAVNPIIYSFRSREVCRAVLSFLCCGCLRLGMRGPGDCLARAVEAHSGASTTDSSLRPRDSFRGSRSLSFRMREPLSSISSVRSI
Sequence of UniProt P00441 (whole entry, looked up): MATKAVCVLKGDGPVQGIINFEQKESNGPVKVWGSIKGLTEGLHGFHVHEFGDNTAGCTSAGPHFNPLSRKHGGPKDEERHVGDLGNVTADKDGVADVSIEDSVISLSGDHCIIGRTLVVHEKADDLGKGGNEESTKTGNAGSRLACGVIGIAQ
Sequence of UniProt O14757 (whole entry, looked up): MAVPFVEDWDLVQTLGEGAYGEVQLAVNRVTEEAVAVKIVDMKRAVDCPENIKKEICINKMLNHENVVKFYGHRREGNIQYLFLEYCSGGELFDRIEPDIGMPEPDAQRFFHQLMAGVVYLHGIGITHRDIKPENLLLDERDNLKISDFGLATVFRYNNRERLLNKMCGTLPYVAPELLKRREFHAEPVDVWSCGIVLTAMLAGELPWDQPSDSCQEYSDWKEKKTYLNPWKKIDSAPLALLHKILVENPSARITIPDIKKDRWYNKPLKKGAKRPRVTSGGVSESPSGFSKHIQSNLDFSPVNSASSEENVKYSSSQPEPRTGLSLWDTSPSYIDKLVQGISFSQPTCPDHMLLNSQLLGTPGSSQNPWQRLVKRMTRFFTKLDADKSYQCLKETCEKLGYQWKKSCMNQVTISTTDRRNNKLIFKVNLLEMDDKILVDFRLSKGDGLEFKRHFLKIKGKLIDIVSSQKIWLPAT
Sequence of UniProt H2K887 (whole entry, looked up): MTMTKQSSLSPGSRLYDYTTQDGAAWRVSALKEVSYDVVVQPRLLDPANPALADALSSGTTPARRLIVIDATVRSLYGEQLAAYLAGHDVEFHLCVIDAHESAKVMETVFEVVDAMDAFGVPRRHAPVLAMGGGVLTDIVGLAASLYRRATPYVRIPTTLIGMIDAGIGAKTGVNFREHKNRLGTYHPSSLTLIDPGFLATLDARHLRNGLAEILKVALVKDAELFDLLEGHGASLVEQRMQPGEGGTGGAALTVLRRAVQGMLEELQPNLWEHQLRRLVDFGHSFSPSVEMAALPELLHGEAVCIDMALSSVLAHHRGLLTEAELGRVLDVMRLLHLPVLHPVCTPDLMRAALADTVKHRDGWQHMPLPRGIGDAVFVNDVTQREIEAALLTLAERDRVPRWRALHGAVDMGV

SMILES	target	test	system	conditions	scale	quantity	value
CC[C@H](C)[C@H](NC(=O)CNC(=O)[C@@H](N)CCCCN)C(=O)N[C@@H](CC(C)C)C(=O)N[C@@H](CCCCN)C(=O)N[C@@H](CC(N)=O)C(=O)N[C@@H](CCCNC(=N)N)C(=O)N[C@@H](C)C(=O)N[C@@H](CCCNC(=N)N)C(=O)N[C@@H](CCCNC(=N)N)C(=O)N[C@@H](CCC(=O)O)C(=O)N[C@@H](CCCNC(=N)N)C(=O)N1CCC[C@H]1C(=O)NCC(=O)N[C@@H](CCCCN)C(=O)N[C@@H](CCCNC(=N)N)C(=O)N[C@@H](CCCCN)C(=O)N[C@@H](CC(N)=O)C(=O)N[C@H](C(=O)N[C@@H](Cc1c[nH]cn1)C(=O)N[C@@H](Cc1c[nH]c2ccccc12)C(=O)N1CCC[C@H]1C(=O)N[C@@H](CCC(=O)O)C(=O)N[C@@H](CCC(=O)O)C(=O)NCC(=O)N[C@@H](CCCCN)C(=O)N[C@@H](CC(C)C)C(=O)N[C@@H](CCCNC(=N)N)C(=O)N[C@@H](CCC(=O)O)C(=O)N[C@@H](Cc1ccc(O)cc1)C(=O)N[C@@H](Cc1ccccc1)C(=O)N[C@@H](Cc1ccc(O)cc1)C(=O)N[C@@H](Cc1ccccc1)C(=O)N[C@@H](CCC(=O)O)C(=O)N[C@@H](CC(C)C)C(=O)N[C@@H](CC(=O)O)C(=O)N[C@@H](CCC(=O)O)C(=O)N[C@@H](C)C(=O)N[C@@H](CCC(=O)O)C(=O)N[C@@H](CCCNC(=N)N)C(=O)N[C@H](C(=O)N[C@@H](CC(N)=O)C(=O)N[C@H](C(=O)O)C(C)C)C(C)C)C(C)C	PPP1CA (Homo sapiens, UniProt P62136)	binding, isothermal titration calorimetry	–	concentration not given, 25 °C, PP1α residues 7-330	–	entropy change ΔS	-78.7 ± 0.6 cal/mol/K
Cc1nn(C)cc1-c1nc2c(N3CCN(Cc4ccc(Cl)cc4)CC3)c(Cl)cnc2[nH]1	CDK19 (Homo sapiens, UniProt Q9BWU1)	binding, KINOMEscan	–	1 µM	–	remaining binding	100%
Clc1cc2c(cc1Cl)Oc1cc(Cl)c(Cl)cc1O2	Uncharacterized protein (Takifugu rubripes, UniProt Q4JHL6)	reporter gene, agonist, dual-luciferase	COS-7	0.1 µM, 28 h	reference: DMSO	fold induction	7.69
COc1cc(Nc2ncc(F)c(Nc3ccc4c(n3)NC(=O)C(C)(C)O4)n2)cc(OC)c1OC	SRPK2 (Homo sapiens, UniProt P78362)	KINOMEscan	–	10 µM	–	inhibition	0%
CNC(=O)Oc1ccccc1OC(C)C	uncharacterized protein	enzyme activity, inhibitor	Sf9 cell homogenate	0.004651 µM, 0.1667 h, together with: α-naphthyl acetate substrate	reference: no inhibitor	remaining activity	99.4%
N.N.N.N.N.N.N.N.N.N.N.N.N.N.[Cl-].[Cl-].[Cl-].[Cl-].[Cl-].[Cl-].[O-2].[O-2].[Ru+3].[Ru+3].[Ru+4]	DCLRE1A (Homo sapiens, UniProt Q6PJP8)	exonuclease activity, inhibitor, fluorescence HTS	–	10 µM, 80 min, together with: 8 nM 5P-FQ substrate	reference: high and low controls	remaining activity	41.6%
O=P(O)(O)OC[C@H]1C[C@@](O)(CO)[C@@H](O)[C@H](O)[C@@H]1O	valA (Streptomyces hygroscopicus, UniProt H2K887)	phosphate release	–	10 µM	–	apparent Vmax	3.2 ± 0.4 µM/min
COc1ccc(-c2ccc(CNC3(C(=O)NO)CCS(=O)(=O)CC3)cc2F)cc1	UDP-3-O-acyl-N-acetylglucosamine deacetylase (Pseudomonas aeruginosa, UniProt P47205)	fluorescence	–	37 °C	–	residence time	~30 min
CC(C)C[C@H](NC(=O)[C@@H]1CCCN1C(=O)[C@H](CCCNC(=N)N)NC(=O)[C@H](CC(C)C)NC(=O)[C@H](CCCNC(=N)N)NC(=O)[C@H](CC(=O)O)NC(=O)[C@H](Cc1ccc(O)cc1)NC(=O)[C@H](CC(=O)O)NC(=O)[C@H](CCC(=O)O)NC(=O)[C@H](CCC(N)=O)NC(=O)CN)C(=O)O	Epithelial sodium channel subunit alpha (Homo sapiens, UniProt P37088)	binding, bio-layer interferometry	–	–	–	koff	0.0197 s⁻¹
c1ccc2c(c1)cc1ccc3cccc4ccc2c1c34	Ahr (Rattus norvegicus, UniProt P41738)	agonist, CALUX reporter	H4IIE	0.038 µg/mL	–	agonist response	87.4%
Nc1ncc(-c2nc(N3CCOCC3)nc(N3CCOCC3)n2)c(C(F)F)n1	PIK3CA (Homo sapiens, UniProt P42336, E545K)	KINOMEscan	–	10 µM	–	remaining binding	0%
COc1ccc(N2C(=O)N(c3c(C)cccc3Cl)Cc3cnc(Nc4ccc(C5CCN(C)CC5)cc4OC)nc32)nc1	RPS6KA3 (Homo sapiens, UniProt P51812)	kinase activity, inhibitor	–	0.5 µM, kinase RSK2	–	inhibition	-0.47%
Nc1nc2c(ncn2[C@@H]2O[C@@H]3COP(=O)(O)O[C@H]4[C@@H](O)[C@H](n5cnc6c(=O)[nH]c(N)nc65)O[C@@H]4COP(=O)(O)O[C@H]3[C@H]2O)c(=O)[nH]1	Cell cycle histidine kinase CckA, R374A; cytoplasmic region (Caulobacter vibrioides, UniProt Q9X688, R374A)	binding, ITC	–	12 °C, together with: ADP 5 mM	–	-TΔS	-7 kcal/mol
CC(C)[C@@H]1NC(=O)[C@H](C)OC(=O)[C@@H](C(C)C)NC(=O)[C@@H](C(C)C)OC(=O)[C@H](C(C)C)NC(=O)[C@H](C)OC(=O)[C@@H](C(C)C)NC(=O)[C@@H](C(C)C)OC(=O)[C@H](C(C)C)NC(=O)[C@H](C)OC(=O)[C@@H](C(C)C)NC(=O)[C@@H](C(C)C)OC1=O	Metalloendopeptidase OMA1, mitochondrial (OMA1, Homo sapiens, UniProt Q96E52)	Western blot, refers to: L-OPA1	HEK293T, control siRNA	concentration not given	–	protein level	18.6 ± 3.4%
CCCCCCCCCCCCCC[N+](C)(C)C	Sodium channel protein type 4 alpha, BTX-activated (Oryctolagus cuniculus, UniProt G1SLL9)	–	–	concentration not given, external application	reference: internal application	relative binding affinity	< 1%
[2H]c1c([2H])c([C@]2([2H])CCCN2C(=O)C(C)(C)Oc2ccc3cn[nH]c3c2)c([2H])c([2H])c1C([2H])([2H])[2H]	LTK (Homo sapiens, UniProt P29376)	KINOMEscan	–	1 µM	reference: DMSO control	remaining binding	81%
O=C(Nc1cccnn1)N1CCC(=Cc2cccc(Oc3ccc(C(F)(F)F)cn3)c2)CC1	LTB4R (Homo sapiens, UniProt Q15722)	radioligand binding	–	50 µM, together with: [3H]LTB4	–	inhibition of binding	35%

SMILES	target	test	system	conditions	scale	quantity	value
CC1(C)[C@H](C(=O)O[C@H](C#N)c2cccc(Oc3ccccc3)c2)[C@@H]1C=C(Br)Br	uncharacterized protein	enzyme activity, inhibitor	Sf9 cell homogenate	0.4545 µM, 0.1667 h, together with: α-naphthyl acetate substrate	reference: no inhibitor	remaining activity	98.5%
CC[C@@H](C)[C@@H](NC(=O)[C@@H](Cc1ccc(O)cc1)NC(=O)[C@H]1CCCN1C(=O)[C@@H](CCCNC(=N)N)NC(=O)[C@H](N)Cc1c[nH]cn1)C(=O)N[C@H](C)C(=O)N[C@H](Cc1c[nH]cn1)C(=O)N[C@H](CCCNC(=N)N)C(=O)N[C@H](CCCCNC(=O)c1cccc(S(=O)(=O)F)c1)C(=O)N[C@H](Cc1ccc(O)cc1)C(=O)N[C@H](CO)C(=O)N[C@H](Cc1ccccc1)C(N)=O	Transferrin receptor protein 1 (Tfrc, Mus musculus, UniProt Q62351)	flow cytometry	DC2.4	6 h, pH 7.4, unit not given	reference: 0 h	surface expression	0.724 and 0.727
COc1ccc([C@@H]2CC(=O)c3c(O)cc(O[C@@H]4O[C@H](CO[C@@H]5O[C@@H](C)[C@H](O)[C@@H](O)[C@H]5O)[C@@H](O)[C@H](O)[C@H]4O)cc3O2)cc1O	Superoxide dismutase [Cu-Zn], fully metallated (SOD1, Homo sapiens, UniProt P00441)	enzyme activity, XTT	–	–	–	in vitro therapeutic index	> 5
CC[C@H](C)[C@H](NC(=O)[C@H](C)NC(=O)[C@H](CCC(=O)O)NC(=O)[C@H](Cc1c[nH]cn1)NC(=O)[C@H](CC(C)C)NC(=O)[C@@H](NC(=O)[C@H](Cc1ccccc1)NC(=O)[C@H](CO)NC(=O)[C@@H](NC(=O)[C@H](CC(C)C)NC(=O)[C@H](CC(=O)O)NC(=O)[C@H](CC(C)C)NC(=O)[C@@H]1CCCN1)[C@@H](C)O)C(C)C)C(=O)O	MAOA (Homo sapiens, UniProt P21397)	inhibitor, fluorometric	–	–	reference: IC50 MAO-B over IC50 MAOA	selectivity ratio	26
C[C@H]1CN(c2n[nH]c3nc(N[C@H]4CC[C@H](NS(=O)(=O)CCC(F)(F)F)CC4)ncc23)CCO1	CHEK1 (Homo sapiens, UniProt O14757)	inhibitor, Kinobeads competition profiling	–	20 µM	reference: vehicle	relative abundance	1.09
C[C@@H]1C[C@@H]([C@H](O)CC2CC(=O)NC(=O)C2)C(=O)[C@@H](C)C1	Protein transport protein Sec61 subunit alpha isoform 1 (Homo sapiens, UniProt P61619)	reporter gene, inhibitor, dual luciferase	HEK293 with SP-CD4-FLuc reporter	concentration not given	–	FLuc/RLuc ratio	1.19 and 0.868 and 1.18 and 1.06
COc1cc(N)c(Cl)cc1C(=O)NC1CN2CCC1CC2 (stereo not drawn)	Probable G-protein coupled receptor 63 (GPR63, Homo sapiens, UniProt Q9BZJ6)	β-arrestin recruitment, TANGO luminescence, refers to: GPR63	–	concentration not given	reference: basal luminescence	log2 fold change	-0.698
OB(O)CSc1nc2ccccc2n1Cc1ccc(C(F)(F)F)cc1C(F)(F)F	Regulatory protein BlaR1, sensor domain (blaR1, Staphylococcus aureus, UniProt P18357)	tryptophan fluorescence quenching	–	concentration not given	–	number of binding sites	1.2
C[C@@H](O)[C@H](NC(=O)c1ccc(-c2ccc(Br)cc2)cc1)C(=O)NO	UDP-3-O-acyl-N-acetylglucosamine deacetylase (Pseudomonas aeruginosa, UniProt P47205, C40S)	ITC	–	concentration not given, 298 K	–	ΔS of binding	0.069 kJ/(mol·K)
CN1CCN(c2cc(-c3ccncc3)c(-c3ccc4ccccc4c3)nn2)CC1	S1PR4 (Homo sapiens, UniProt O95977)	antagonist, FLIPR	–	10 µM	–	inhibition	-6.7%
CN(C(=O)n1cnc(-c2ccc[n+]([O-])c2)c1)C1CCCCC1	GABBR1 (Homo sapiens, UniProt Q9UBS5)	radioligand binding	–	50 µM, together with: [3H]CGP-54626	–	inhibition	7%
O=C1c2ccccc2C(=O)C1C(=O)C(c1ccccc1)c1ccccc1	Nuclear receptor subfamily 1 group I member 3 (Homo sapiens, UniProt Q14994)	–	–	concentration not given	–	activity	inactive
CCCN(CCOc1c(Cl)cc(Cl)cc1Cl)C(=O)n1ccnc1	F-box only protein 22 (Homo sapiens, UniProt Q8NEZ5)	binding, affinity selection mass spectrometry	–	100 nM, pooled screen	reference: other proteins	fold change	22
O=C(c1ccc(Cl)cc1)N1CCN2C(=O)N(OC(=O)N3CCOc4ccccc43)C(=O)C2C1 (stereo not drawn)	SLC16A3 (Homo sapiens, UniProt O15427)	MS-based ABPP	SW-620 conditioned medium	10 µM, 1 h, 37 °C	reference: compound over DMSO, lower = more inhibition	peptide ratio	1.53 and 1.36 and 1.56 and 1.38
O=C(Cc1cccs1)N[C@@H]1C(=O)N2C(C(=O)O)=C(/C=C/c3ccc([N+](=O)[O-])cc3[N+](=O)[O-])CS[C@H]12	blaNDM-1 (Klebsiella pneumoniae, UniProt C7C422, C208D)	hydrolysis, substrate	–	–	–	Km	0.9 ± 0.1 µM
O=C(Nc1cnccc1Cl)N1CCN(Cc2ccc3c(c2)OC(F)(F)O3)CC1	CHRM3 (Homo sapiens, UniProt P20309)	binding	–	50 µM, together with: [3H]N-methylscopolamine	–	inhibition	-12%

Repeated from above:
SMILES	target	test	system	conditions	scale	quantity	value
COc1ccc(-c2ccc(CNC3(C(=O)NO)CCS(=O)(=O)CC3)cc2F)cc1	UDP-3-O-acyl-N-acetylglucosamine deacetylase (Pseudomonas aeruginosa, UniProt P47205)	fluorescence	–	37 °C	–	residence time	~30 min
CN1CCN(c2cc(-c3ccncc3)c(-c3ccc4ccccc4c3)nn2)CC1	S1PR4 (Homo sapiens, UniProt O95977)	antagonist, FLIPR	–	10 µM	–	inhibition	-6.7%
Cc1nn(C)cc1-c1nc2c(N3CCN(Cc4ccc(Cl)cc4)CC3)c(Cl)cnc2[nH]1	CDK19 (Homo sapiens, UniProt Q9BWU1)	binding, KINOMEscan	–	1 µM	–	remaining binding	100%
C[C@@H]1C[C@@H]([C@H](O)CC2CC(=O)NC(=O)C2)C(=O)[C@@H](C)C1	Protein transport protein Sec61 subunit alpha isoform 1 (Homo sapiens, UniProt P61619)	reporter gene, inhibitor, dual luciferase	HEK293 with SP-CD4-FLuc reporter	concentration not given	–	FLuc/RLuc ratio	1.19 and 0.868 and 1.18 and 1.06
O=C(Nc1cnccc1Cl)N1CCN(Cc2ccc3c(c2)OC(F)(F)O3)CC1	CHRM3 (Homo sapiens, UniProt P20309)	binding	–	50 µM, together with: [3H]N-methylscopolamine	–	inhibition	-12%
